# Experimental data pooled from the literature.
# Several values in a cell are separate wells, animals, samples, runs or records. ± marks the error that the study gave.
# DHODH: Dihydroorotate dehydrogenase (quinone), mitochondrial (DHODH, Homo sapiens, UniProt Q02127)
# CASP4: Caspase-4 (CASP4, Homo sapiens, UniProt P49662)
# TARDBP aggregated: TAR DNA-binding protein 43, aggregated (TARDBP, Homo sapiens, UniProt Q13148)
# Lysophospholipase-like protein 1: Lysophospholipase-like protein 1 (Mus musculus, UniProt Q3UFF7)
# CASP9: Caspase-9 (CASP9, Homo sapiens, UniProt P55211)
target or system,test,system,conditions,how to read,endpoint,result,Compound
DHODH,"enzyme activity, inhibitor, DCIP colorimetric",,370.37 nM,,percent effect,4.26% and 4.32% and 3.2%,CN(/N=C/c1ccc(F)cc1C(=O)NO)c1nc(-c2ccccc2Cl)cs1
"HDAC8 (Homo sapiens, UniProt Q9BY41)",ITC,Tris buffer,"concentration not given, pH 7.5",,binding stoichiometry,0.8,Cc1cc(=O)oc2cc(NC(=O)CCCCCCC(=O)NO)ccc12
CASP4,"enzyme activity, inhibitor",,,,kinact/KI,1800 M⁻¹ s⁻¹,CC(=O)N[C@@H](CC(=O)O)C(=O)N[C@@H](C)C(=O)N[C@@H](Cc1ccc(N)cc1)C(=O)N[C@@H](CC(=O)O)C(=O)COC(=O)c1c(C)cccc1C
TARDBP aggregated,radioligand binding,"human, FTLD-TDP type B sarkosyl-insoluble extract",4.94 nM,,specific binding,0.245 nM and 0.385 nM,O=C1c2sc(-c3ccc(N4CCC(F)C4)nc3F)nc2CCN1c1cccnc1 (centres unmarked)
"Chromobox protein homolog 8 (Homo sapiens, UniProt Q9HC52)",TR-FRET displacement,,,baseline: IC50 CBX7 over IC50 CBX8,selectivity ratio,0.21,CC(C)C[C@H](NC(=O)[C@H](C)NC(=O)[C@H](Cc1ccccc1)NC(=O)c1ccc(C(C)(C)C)cc1)C(=O)N[C@@H](CCCCN(C)C1CC2CCC1C2)C(=O)N[C@@H](CO)C(N)=O (some centres unmarked)
"Insulin (INS, Bos taurus, UniProt P01317)",circular dichroism,,"800 min, final stage after heating, together with: INS 350 µM",,β-strand content,30%,CSCC[C@H](NC(=O)[C@H](CC(=O)O)NC(C)=O)C(=O)N[C@@H](Cc1ccc(O)cc1)C(=O)N[C@@H](Cc1ccc(O)cc1)C(=O)N[C@@H](CCCNC(=N)N)C(=O)N[C@@H](Cc1ccc(O)cc1)C(=O)N[C@@H](CC(N)=O)C(=O)NCC(=O)N[C@@H](CCCCN)C(=O)N[C@H](C(=O)N[C@@H](Cc1c[nH]c2ccccc12)C(=O)N[C@@H](Cc1c[nH]c2ccccc12)C(=O)N[C@@H](CCCNC(=N)N)C(=O)O)C(C)C
Lysophospholipase-like protein 1,"enzyme activity, activator, gel-based ABPP",purified protein,"concentration not given, together with: FP-rhodamine",baseline: DMSO,probe labeling increase,2.4 fold,Nc1nc(SCc2ccc(Br)cc2)nn1S(=O)(=O)c1ccc2c(c1)CCO2
"Guanine nucleotide-binding protein G(i) subunit alpha-2 (Homo sapiens, UniProt P04899)","competitive isoTOP-ABPP, measured: GNAI2 cysteine peptide",Ramos soluble proteome,"100 µM, together with: iodoacetamide probe","baseline: DMSO over compound-treated, higher = stronger cysteine blockade",isoTOP-ABPP competition ratio,1.2,CCCCCC(O)/C=C/C=O (centres unmarked)
TARDBP aggregated,radioligand binding,"human, FTLD-TDP type B extract",together with: radioligand 9.68 nM,,specific binding,4.01 nM and 2.66 nM,O=C1c2sc(-c3ccc(N4CCC(CO)CC4)nc3F)nc2CCN1c1cccnc1
"GPR3 (Homo sapiens, UniProt P46089, M156A)","cAMP level, cAMP GloSensor",,1 µM,higher = more cAMP,cAMP luminescence,25000 a.u. and 19300 a.u. and 21400 a.u. and 26200 a.u.,CC(C)Oc1cc(Cl)ccc1CNc1cc(-c2ccccc2)nc2ncnn12
"MAPK8 (Homo sapiens, UniProt P45983)","enzyme activity, inhibitor",,"0.06097 µM, 0 h, unit not given, together with: GSH 10 mM pre-incubation",baseline: vehicle,remaining activity,0.302,COC(=O)[C@@]1(C)C=C(C(=O)Nc2cccc(C(=O)Nc3ccc(Nc4nccc(-c5cccnc5)n4)c(C)c3)c2)C(=O)CC1
"CLK2 (Homo sapiens, UniProt P49760)","binding, competition with immobilised ligand",,1 µM,,remaining binding,62%,Cc1cc(NC(=O)[C@H](O)c2cc(F)cc(F)c2)ccc1-c1cnc(N)c(C(=O)NC(C)C)c1
"Tyrosine-protein phosphatase non-receptor type 1 (Mus musculus, UniProt P35821)","degrader, Western blot",B16-F10,"0.1 µM, together with: bortezomib 10 µM pretreatment",,remaining protein,88% and 101%,Cn1c(=O)n(C2CCC(=O)NC2=O)c2ccc(C3CCN(CC(=O)Nc4cccc(CS(=O)(=O)N5CC[C@H](Nc6cccc(-c7sc(C(=O)O)c(OCC(=O)O)c7Cl)c6)CC5(C)C)c4)CC3)cc21 (some centres unmarked)
"Calcr/Ramp1 (Rattus norvegicus, UniProt P32214+Q9JJ74)","cAMP accumulation, agonist",UMUC3 cells,,baseline: rat amylin maximal response,Emax,> 80%,CC(C)C[C@H](NC(=O)[C@H](CCCN)NC(=O)CNC(=O)[C@@H](NC(=O)[C@H](C)NC(=O)[C@@H]1CSCSC[C@H](NC(=O)CC[C@H](N)C(=O)O)C(=O)N[C@@H](CC(N)=O)C(=O)N[C@@H]([C@@H](C)O)C(=O)N[C@@H](C)C(=O)N[C@@H]([C@@H](C)O)C(=O)N1)[C@@H](C)O)C(=O)N[C@@H](C)C(=O)N[C@@H](CCC(=O)O)C(=O)N[C@@](C)(Cc1ccccc1)C(=O)N[C@@H](CC(C)C)C(=O)N[C@H](C(=O)N[C@@H](CCCNC(=N)N)C(=O)N[C@@H](CO)C(=O)N[C@@H](CO)C(=O)N[C@@H](CC(N)=O)C(=O)N(C)[C@@H](CC(N)=O)C(=O)N[C@@H](Cc1ccccc1)C(=O)NCC(=O)N1CCC[C@H]1C(=O)N[C@@H](CCCCNC(=O)CC[C@H](NC(=O)CC[C@H](NC(=O)CCCCCCCCCCCCCCCCCCC(=O)O)C(=O)O)C(=O)O)C(=O)N[C@@H](CC(C)C)C(=O)N1CCC[C@H]1C(=O)N1CCC[C@H]1C(=O)N[C@H](C(=O)N[C@@H](CCC(=O)O)C(=O)N[C@H](C(=O)NCC(=O)N[C@@H](CO)C(=O)N[C@@H](CC(N)=O)C(=O)N[C@H](C(=O)N[C@@H](Cc1ccc(O)cc1)C(N)=O)[C@@H](C)O)C(C)C)[C@@H](C)O)C(C)C
CASP4,"enzyme activity, inhibitor",,,,kinact/KI,16600 M⁻¹ s⁻¹,CC[C@H](NC(=O)[C@H](CC(C)C)NC(=O)[C@H](CC(=O)O)NC(C)=O)C(=O)N[C@@H](CC(=O)O)C(=O)COC(=O)c1c(C)cccc1C
"geranylgeranyltransferase type-I (Rattus norvegicus, UniProt P53610+Q04631)","substrate, fluorescence anisotropy",,"isoprenoid Km, together with: FAM-RhoA peptide",,Km,0.016 µM,CC(C)=CCC/C(C)=C/CC/C(C)=C/CC/C(C)=C/COP(=O)(O)OP(=O)(O)O
,liver microsome stability,human liver microsomes,"1 µM, without NADPH",,hepatic clearance,3.9 mL/min/kg,O=C(NC1CCOCC1)c1ccc(C2CCCCC2)cc1
"Glyoxylate reductase/hydroxypyruvate reductase (Homo sapiens, UniProt Q9UBQ7)","competitive isoTOP-ABPP, measured: GRHPR cysteine peptide",Ramos soluble proteome,"100 µM, together with: iodoacetamide probe","baseline: DMSO over compound-treated, higher = stronger cysteine blockade",isoTOP-ABPP competition ratio,0.9,CCCCCCCCCCCCC/C=C/C=O
"Flap endonuclease 1 (Homo sapiens, UniProt P39748)",isothermal titration calorimetry,,"concentration not given, pH 7.5, 25 °C, together with: Mg2+ 8 mM",,binding stoichiometry,1.12,O=c1c2sccc2n(CC2COc3ccccc3O2)c(=O)n1O (centres unmarked)
"USP5 (Homo sapiens, UniProt P45974)","enzyme activity, inhibitor",,17 µM,,inhibition,87%,O=C1NNC(c2ccccc2)=N/C1=C\c1ccc(Cl)cc1
"14-3-3 protein epsilon (Homo sapiens, UniProt P62258)","binding, SPR",,,,kon,2.38e+06 M⁻¹ s⁻¹,CC(=O)N[C@@H](CCCNC(=N)N)C(=O)N[C@H](C(=O)N[C@@H](CCCCN)C(=O)N[C@@H](CO)C(=O)N[C@@H](CCCNC(=N)N)C(=O)N[C@H](C(=O)N[C@@H](Cc1c[nH]c2ccccc12)C(=O)N[C@@H](C)C(=O)N[C@@H](Cc1c[nH]c2ccccc12)C(N)=O)[C@@H](C)OP(=O)(O)O)[C@@H](C)O
CASP9,"enzyme activity, inhibitor",,,,kinact/KI,120000 M⁻¹ s⁻¹,CC(=O)N1CCC[C@H]1C(=O)N[C@@H](CCC(N)=O)C(=O)N[C@@H](C)C(=O)N[C@@H](CC(=O)O)C(=O)COC(=O)c1c(C)cccc1C
"AHR (Homo sapiens, UniProt P35869)","reporter gene, agonist, XRE luciferase",HepG2,,baseline: ITE,Emax,60 ± 4%,O=C(c1cccc(C(F)(F)F)n1)c1c[nH]c2ccccc12
CASP9,"enzyme activity, inhibitor",,,,kinact/KI,23100 M⁻¹ s⁻¹,CC(=O)N[C@@H](CC(=O)O)C(=O)N[C@@H](CCC(=O)O)C(=O)N[C@H](C(=O)N[C@@H](CC(=O)O)C(=O)COC(=O)c1c(C)cccc1C)C(C)C
"Acetyl-CoA synthetase (Cryptococcus neoformans, UniProt J9VFT1)","enzyme activity, inhibitor, coupled pyrophosphate",,977 nM,higher is more activity,reaction rate,0.00161 a.u.,CN(Cc1cc(C2CC2)on1)C(=O)c1cccc(-c2ccc3c(c2)CCO3)c1
"FKBP4 (Homo sapiens, UniProt Q02790)","tracer binding, NanoBRET tracer titration",HEK293T transiently expressing FKBP4,,,Hill slope,1.3 ± 0.2,O=C(CCc1ccc2n1[B-](F)(F)[N+]1=C(c3ccc[nH]3)C=CC1=C2)NCCCn1cc(COC[C@H]2CN(Cc3ccccn3)C(=O)[C@@H]3CCC[C@H]2N3S(=O)(=O)c2cc(Cl)cc(Cl)c2)nn1
CASP4,"enzyme activity, inhibitor",,,,kinact/KI,1500 M⁻¹ s⁻¹,CCCC[C@H](NC(=O)[C@H](CC(=O)O)NC(C)=O)C(=O)N1[C@H](C(=O)N[C@@H](CC(=O)O)C(=O)COC(=O)c2c(C)cccc2C)C[C@@H]2CCCC[C@@H]21
Lysophospholipase-like protein 1,"enzyme activity, activator, gel-based ABPP",purified protein,"concentration not given, together with: FP-rhodamine",baseline: DMSO,probe labeling increase,1.4 fold,Cn1ccc2c(S(=O)(=O)n3nc(SCc4ccc(Cl)cc4)nc3N)cccc21
CASP9,"enzyme activity, inhibitor",,,,kinact/KI,114000 M⁻¹ s⁻¹,CC(=O)N1[C@H](C(=O)N[C@@H](CC(C)C)C(=O)N[C@@H](C)C(=O)N[C@@H](CC(=O)O)C(=O)COC(=O)c2c(C)cccc2C)C[C@@H]2CCCC[C@@H]21
,liver microsome stability,cynomolgus liver microsomes,1 µM,,hepatic clearance,20 mL/min/kg,O=C(COCC(F)F)Nc1ccc([C@H]2[C@@H](F)[C@@H](F)C[C@@H](F)[C@H]2F)cc1
CASP4,"enzyme activity, inhibitor",,,,kinact/KI,52600 M⁻¹ s⁻¹,CCCC[C@H](NC(C)=O)C(=O)N[C@@H](CCC(=O)O)C(=O)N[C@H](C(=O)N[C@@H](CC(=O)O)C(=O)COC(=O)c1c(C)cccc1C)[C@@H](C)O
DHODH,"enzyme activity, inhibitor, DCIP reduction",,0.05 µM,higher = more activity,reaction rate,-29.3 a.u.,O=C1N/C(=N\c2ccc(F)cc2C(=O)O)S/C1=C\c1ccc(C(F)(F)F)cc1

# For quick reference, copied from above:
target or system,test,system,conditions,how to read,endpoint,result,Compound
DHODH,"enzyme activity, inhibitor, DCIP colorimetric",,370.37 nM,,percent effect,4.26% and 4.32% and 3.2%,CN(/N=C/c1ccc(F)cc1C(=O)NO)c1nc(-c2ccccc2Cl)cs1
"HDAC8 (Homo sapiens, UniProt Q9BY41)",ITC,Tris buffer,"concentration not given, pH 7.5",,binding stoichiometry,0.8,Cc1cc(=O)oc2cc(NC(=O)CCCCCCC(=O)NO)ccc12
CASP4,"enzyme activity, inhibitor",,,,kinact/KI,1800 M⁻¹ s⁻¹,CC(=O)N[C@@H](CC(=O)O)C(=O)N[C@@H](C)C(=O)N[C@@H](Cc1ccc(N)cc1)C(=O)N[C@@H](CC(=O)O)C(=O)COC(=O)c1c(C)cccc1C
TARDBP aggregated,radioligand binding,"human, FTLD-TDP type B sarkosyl-insoluble extract",4.94 nM,,specific binding,0.245 nM and 0.385 nM,O=C1c2sc(-c3ccc(N4CCC(F)C4)nc3F)nc2CCN1c1cccnc1 (centres unmarked)
